Measurements pooled from the literature.
Parts stem from different laboratories: compare values within a part only. Values joined by “and” are separate records of one study, mostly repeats; a detail may differ. Changes are numbered by the printed parent chain.
UniProt Q8NI60, sequence (whole entry, looked up): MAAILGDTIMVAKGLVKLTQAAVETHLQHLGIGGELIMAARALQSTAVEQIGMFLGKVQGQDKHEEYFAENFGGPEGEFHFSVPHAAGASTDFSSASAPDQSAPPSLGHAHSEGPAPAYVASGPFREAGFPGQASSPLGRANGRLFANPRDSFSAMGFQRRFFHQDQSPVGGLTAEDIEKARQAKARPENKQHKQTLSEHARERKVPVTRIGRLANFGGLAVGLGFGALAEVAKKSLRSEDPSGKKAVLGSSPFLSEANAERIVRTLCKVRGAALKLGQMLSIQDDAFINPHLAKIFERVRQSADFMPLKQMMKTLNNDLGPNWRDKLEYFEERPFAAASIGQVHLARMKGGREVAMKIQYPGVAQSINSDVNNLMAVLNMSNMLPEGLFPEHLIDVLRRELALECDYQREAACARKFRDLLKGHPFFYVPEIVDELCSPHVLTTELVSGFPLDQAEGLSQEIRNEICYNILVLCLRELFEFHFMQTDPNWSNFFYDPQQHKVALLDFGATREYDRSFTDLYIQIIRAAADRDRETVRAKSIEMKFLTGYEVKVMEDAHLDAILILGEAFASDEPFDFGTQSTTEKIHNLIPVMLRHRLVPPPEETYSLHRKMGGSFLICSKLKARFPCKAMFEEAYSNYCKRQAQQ
UniProt Q6ZN16, sequence (whole entry, looked up): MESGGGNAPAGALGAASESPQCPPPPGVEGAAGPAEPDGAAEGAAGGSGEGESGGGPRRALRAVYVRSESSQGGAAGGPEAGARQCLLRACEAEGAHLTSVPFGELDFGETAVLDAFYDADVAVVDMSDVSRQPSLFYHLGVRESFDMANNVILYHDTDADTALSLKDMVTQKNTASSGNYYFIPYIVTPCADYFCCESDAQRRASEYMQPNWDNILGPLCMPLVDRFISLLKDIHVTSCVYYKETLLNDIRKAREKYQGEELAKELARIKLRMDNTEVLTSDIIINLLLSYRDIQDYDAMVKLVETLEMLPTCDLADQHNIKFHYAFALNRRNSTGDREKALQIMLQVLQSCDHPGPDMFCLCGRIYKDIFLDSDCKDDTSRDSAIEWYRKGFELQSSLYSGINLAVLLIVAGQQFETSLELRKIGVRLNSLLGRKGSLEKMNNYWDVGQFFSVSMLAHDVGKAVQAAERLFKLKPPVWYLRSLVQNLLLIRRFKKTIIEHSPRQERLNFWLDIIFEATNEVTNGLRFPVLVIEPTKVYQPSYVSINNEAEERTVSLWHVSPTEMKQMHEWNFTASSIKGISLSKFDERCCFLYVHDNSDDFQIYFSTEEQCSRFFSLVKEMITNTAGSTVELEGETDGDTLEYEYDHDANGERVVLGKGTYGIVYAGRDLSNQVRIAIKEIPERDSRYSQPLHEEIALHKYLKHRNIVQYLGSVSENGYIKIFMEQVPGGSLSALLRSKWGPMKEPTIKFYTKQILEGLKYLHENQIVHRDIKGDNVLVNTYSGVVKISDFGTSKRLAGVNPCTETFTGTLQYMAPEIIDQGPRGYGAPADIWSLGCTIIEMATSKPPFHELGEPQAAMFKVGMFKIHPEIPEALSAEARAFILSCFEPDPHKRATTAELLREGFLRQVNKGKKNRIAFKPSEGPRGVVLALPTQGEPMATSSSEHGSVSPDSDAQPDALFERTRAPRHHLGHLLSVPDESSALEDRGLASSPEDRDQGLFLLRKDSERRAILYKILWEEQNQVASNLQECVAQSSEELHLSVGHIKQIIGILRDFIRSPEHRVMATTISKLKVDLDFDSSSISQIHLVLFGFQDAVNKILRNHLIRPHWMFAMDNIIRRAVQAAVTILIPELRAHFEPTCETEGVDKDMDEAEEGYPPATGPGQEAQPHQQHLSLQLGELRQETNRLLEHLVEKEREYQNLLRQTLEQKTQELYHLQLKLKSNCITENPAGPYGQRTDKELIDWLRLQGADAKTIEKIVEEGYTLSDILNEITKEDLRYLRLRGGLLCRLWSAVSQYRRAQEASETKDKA
UniProt Q13233, sequence (whole entry, looked up): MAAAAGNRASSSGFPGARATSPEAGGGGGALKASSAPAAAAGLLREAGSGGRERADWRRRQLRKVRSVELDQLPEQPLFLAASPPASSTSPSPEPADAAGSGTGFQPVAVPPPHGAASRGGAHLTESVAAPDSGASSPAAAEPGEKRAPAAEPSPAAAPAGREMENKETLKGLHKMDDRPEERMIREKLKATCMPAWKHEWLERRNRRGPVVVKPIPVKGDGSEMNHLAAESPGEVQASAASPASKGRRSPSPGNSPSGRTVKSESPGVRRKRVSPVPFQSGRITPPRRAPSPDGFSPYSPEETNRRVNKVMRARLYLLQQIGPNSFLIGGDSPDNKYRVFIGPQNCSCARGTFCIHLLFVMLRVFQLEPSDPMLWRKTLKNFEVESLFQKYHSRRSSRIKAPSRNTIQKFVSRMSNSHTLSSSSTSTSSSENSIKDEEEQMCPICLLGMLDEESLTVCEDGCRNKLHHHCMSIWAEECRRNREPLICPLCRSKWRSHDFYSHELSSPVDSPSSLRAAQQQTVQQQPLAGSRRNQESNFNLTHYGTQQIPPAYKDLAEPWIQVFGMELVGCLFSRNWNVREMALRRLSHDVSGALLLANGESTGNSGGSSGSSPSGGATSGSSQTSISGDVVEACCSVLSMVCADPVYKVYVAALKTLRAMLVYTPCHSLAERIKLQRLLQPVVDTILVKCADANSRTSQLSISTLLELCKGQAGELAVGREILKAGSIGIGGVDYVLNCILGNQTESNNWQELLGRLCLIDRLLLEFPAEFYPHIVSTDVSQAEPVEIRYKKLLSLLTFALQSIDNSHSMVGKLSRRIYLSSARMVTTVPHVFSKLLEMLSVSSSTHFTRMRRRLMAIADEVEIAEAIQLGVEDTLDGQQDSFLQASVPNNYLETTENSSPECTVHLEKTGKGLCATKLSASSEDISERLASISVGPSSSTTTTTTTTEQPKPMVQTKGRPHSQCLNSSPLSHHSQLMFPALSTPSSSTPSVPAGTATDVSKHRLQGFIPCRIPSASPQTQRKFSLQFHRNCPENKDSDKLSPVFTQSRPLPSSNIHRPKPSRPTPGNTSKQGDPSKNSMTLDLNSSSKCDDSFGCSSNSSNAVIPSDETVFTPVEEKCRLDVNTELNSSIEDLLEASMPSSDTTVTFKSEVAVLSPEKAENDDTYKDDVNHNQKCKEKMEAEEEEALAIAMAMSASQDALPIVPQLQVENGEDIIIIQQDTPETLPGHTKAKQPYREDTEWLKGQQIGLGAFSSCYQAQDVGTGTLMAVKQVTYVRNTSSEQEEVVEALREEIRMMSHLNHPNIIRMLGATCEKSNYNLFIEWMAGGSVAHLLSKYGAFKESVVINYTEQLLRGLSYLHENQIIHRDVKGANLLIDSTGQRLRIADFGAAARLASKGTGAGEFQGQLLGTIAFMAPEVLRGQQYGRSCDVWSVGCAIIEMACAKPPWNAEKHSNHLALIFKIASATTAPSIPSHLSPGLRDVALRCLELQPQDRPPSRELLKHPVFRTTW
UniProt P41743, sequence (whole entry, looked up): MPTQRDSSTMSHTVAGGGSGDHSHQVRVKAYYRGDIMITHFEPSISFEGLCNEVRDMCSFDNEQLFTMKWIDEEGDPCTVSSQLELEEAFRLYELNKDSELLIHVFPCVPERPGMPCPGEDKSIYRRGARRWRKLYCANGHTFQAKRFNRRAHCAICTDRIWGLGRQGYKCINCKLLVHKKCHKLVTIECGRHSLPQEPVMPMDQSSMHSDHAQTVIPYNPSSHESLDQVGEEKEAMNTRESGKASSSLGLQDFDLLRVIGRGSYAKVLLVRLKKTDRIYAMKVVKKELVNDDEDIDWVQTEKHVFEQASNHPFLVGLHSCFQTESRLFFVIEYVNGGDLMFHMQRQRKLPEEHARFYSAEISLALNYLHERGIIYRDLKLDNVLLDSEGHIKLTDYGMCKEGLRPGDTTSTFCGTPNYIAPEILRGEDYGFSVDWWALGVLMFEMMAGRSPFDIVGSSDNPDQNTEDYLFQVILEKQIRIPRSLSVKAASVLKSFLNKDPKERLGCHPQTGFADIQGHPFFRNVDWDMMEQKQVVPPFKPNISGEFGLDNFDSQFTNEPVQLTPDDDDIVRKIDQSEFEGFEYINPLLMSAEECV

Series 1
Structure (SMILES): N#CC1(c2ccccn2)CCN(Cc2cc(C(=O)O)c(=O)n3ccccc23)CC1
Read-out: cell-free assay
Method: competition with immobilised ligand
Tested at: 1 µM
Endpoint: remaining binding
target = Serine/threonine-protein kinase 35 (STK35, Homo sapiens, UniProt Q8TDR2); value = 94%
target = Serine/threonine-protein kinase/endoribonuclease IRE1 (ERN1, Homo sapiens, UniProt O75460); value = 81%
target = Mitogen-activated protein kinase kinase kinase 15 (MAP3K15, Homo sapiens, UniProt Q6ZN16); value = 100%
target = Phosphatidylinositol 4,5-bisphosphate 3-kinase catalytic subunit alpha isoform (PIK3CA, Homo sapiens, UniProt P42336, C420R); value = 97%
target = Protein kinase C iota type (PRKCI, Homo sapiens, UniProt P41743); value = 100%
target = Mitogen-activated protein kinase kinase kinase 1 (MAP3K1, Homo sapiens, UniProt Q13233); value = 98%
target = Cyclin-dependent kinase 11B (CDK11B, Homo sapiens, UniProt P21127); value = 100%
target = Serine/threonine-protein kinase TAO2 (TAOK2, Homo sapiens, UniProt Q9UL54); value = 97%
target = Phosphatidylinositol 5-phosphate 4-kinase type-2 gamma (PIP4K2C, Homo sapiens, UniProt Q8TBX8); value = 99%
target = Serine/threonine-protein kinase N2 (PKN2, Homo sapiens, UniProt Q16513); value = 100%
target = Atypical kinase COQ8A, mitochondrial (COQ8A, Homo sapiens, UniProt Q8NI60); value = 100%
target = Serine/threonine-protein kinase WNK3 (WNK3, Homo sapiens, UniProt Q9BYP7); value = 99%
target = Serine/threonine-protein kinase tousled-like 2 (TLK2, Homo sapiens, UniProt Q86UE8); value = 98%
target = 5'-AMP-activated protein kinase catalytic subunit alpha-1 (PRKAA1, Homo sapiens, UniProt Q13131); value = 100%
target = Serine/threonine-protein kinase pim-3 (PIM3, Homo sapiens, UniProt Q86V86); value = 100%

Series 2
Target: Serine/threonine-protein kinase 33 (STK33, Homo sapiens, UniProt Q9BYT3)
UniProt Q9BYT3, sequence (whole entry, looked up): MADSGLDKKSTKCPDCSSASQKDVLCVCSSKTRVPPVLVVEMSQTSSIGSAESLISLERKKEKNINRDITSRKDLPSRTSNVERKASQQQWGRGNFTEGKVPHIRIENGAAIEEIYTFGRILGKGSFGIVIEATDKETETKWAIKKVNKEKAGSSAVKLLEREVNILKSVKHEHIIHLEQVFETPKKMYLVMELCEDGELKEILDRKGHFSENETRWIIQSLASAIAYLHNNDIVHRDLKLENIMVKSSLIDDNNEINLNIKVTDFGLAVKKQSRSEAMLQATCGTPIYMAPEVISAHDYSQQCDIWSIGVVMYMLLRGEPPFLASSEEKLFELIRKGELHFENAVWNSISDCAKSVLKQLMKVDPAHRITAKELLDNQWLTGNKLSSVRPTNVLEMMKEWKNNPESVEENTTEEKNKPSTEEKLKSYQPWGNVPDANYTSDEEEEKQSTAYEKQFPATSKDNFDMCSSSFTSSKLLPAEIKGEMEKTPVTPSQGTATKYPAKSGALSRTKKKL
Read-out: enzyme activity
Mode: inhibitor
Method: radiometric
Tested at: 0.5 µM
Endpoint: remaining activity
SMILES = O=c1cc(N2CCNCC2)oc2c(-c3ccccc3)cccc12; value = 86.1%
SMILES = NCCNc1ncc(C(N)=O)c(Nc2cccc(C(F)(F)F)c2)n1; value = 81.9%
SMILES = O=S(=O)(c1cccc2cnccc12)N1CCCNCC1; value = 90.3%

Series 3
Target: UDP-N-acetylglucosamine--peptide N-acetylglucosaminyltransferase 110 kDa subunit (OGT, Homo sapiens, UniProt O15294)
Read-out: binding
Method: phage display NGS
Molecule type: peptide
Baseline: input library
Endpoint: minimum log2 enrichment ratio
Residues (O15294 1-1046): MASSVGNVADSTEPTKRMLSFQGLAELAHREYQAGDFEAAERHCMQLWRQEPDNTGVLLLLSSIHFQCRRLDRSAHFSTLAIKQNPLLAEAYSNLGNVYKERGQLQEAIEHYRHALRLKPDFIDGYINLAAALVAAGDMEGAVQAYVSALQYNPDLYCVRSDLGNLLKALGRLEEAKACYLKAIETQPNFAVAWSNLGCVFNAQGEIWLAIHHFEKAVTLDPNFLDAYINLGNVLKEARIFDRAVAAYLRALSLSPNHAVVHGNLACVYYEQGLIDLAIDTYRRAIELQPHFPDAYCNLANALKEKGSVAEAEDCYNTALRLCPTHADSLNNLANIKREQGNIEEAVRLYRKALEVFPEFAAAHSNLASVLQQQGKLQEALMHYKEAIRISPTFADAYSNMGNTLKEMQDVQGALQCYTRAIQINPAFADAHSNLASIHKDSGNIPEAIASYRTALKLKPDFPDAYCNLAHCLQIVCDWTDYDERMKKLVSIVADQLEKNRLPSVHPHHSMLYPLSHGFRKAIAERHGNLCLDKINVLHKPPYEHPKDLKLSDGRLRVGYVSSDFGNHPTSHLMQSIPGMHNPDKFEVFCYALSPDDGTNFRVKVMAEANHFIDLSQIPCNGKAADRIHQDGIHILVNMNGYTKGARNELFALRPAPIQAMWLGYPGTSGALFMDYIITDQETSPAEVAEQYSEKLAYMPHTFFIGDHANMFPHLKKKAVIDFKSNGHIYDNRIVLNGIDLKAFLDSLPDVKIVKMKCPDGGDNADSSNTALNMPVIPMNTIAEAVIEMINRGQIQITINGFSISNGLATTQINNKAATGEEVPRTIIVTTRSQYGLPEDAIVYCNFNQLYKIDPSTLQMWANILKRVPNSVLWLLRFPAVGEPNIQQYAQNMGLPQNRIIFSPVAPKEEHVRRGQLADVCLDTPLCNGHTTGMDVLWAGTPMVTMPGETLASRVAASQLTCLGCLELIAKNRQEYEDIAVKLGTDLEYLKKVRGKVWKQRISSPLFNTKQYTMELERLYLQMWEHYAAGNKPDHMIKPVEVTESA
Molecule = HDVAMAKLHHQQFDY; value = 1.25
Molecule = HGHRLRSESHTHVRQ; value = 1.25
Molecule = HINHHHQSITIPWWN; value = 5.87
Molecule = MPYFPPAYKIQTAYA; value = 3.93
Molecule = HFQEHTSHWHVYSTV; value = 2.47
Molecule = FVNTWHYPKTANYHA; value = 1.7
Molecule = VITGGPYYPAYQMSY; value = 2.68
Molecule = HQQQHHEVSGHHLVR; value = 2.12

Series 4
Target: inorganic phosphate, free oxyanion
Method: microfluidic competitive inhibition
Medium: in vitro, cell-free expressed
Tested at: not given
Setting: derived from inhibition constants, unchanged parent 615000 nM
Reading: lower = stronger binding
Endpoint: phosphate dissociation constant
Starting sequence: PafA, mature enzyme, eGFP fusion (Elizabethkingia meningoseptica, UniProt Q9KJX5); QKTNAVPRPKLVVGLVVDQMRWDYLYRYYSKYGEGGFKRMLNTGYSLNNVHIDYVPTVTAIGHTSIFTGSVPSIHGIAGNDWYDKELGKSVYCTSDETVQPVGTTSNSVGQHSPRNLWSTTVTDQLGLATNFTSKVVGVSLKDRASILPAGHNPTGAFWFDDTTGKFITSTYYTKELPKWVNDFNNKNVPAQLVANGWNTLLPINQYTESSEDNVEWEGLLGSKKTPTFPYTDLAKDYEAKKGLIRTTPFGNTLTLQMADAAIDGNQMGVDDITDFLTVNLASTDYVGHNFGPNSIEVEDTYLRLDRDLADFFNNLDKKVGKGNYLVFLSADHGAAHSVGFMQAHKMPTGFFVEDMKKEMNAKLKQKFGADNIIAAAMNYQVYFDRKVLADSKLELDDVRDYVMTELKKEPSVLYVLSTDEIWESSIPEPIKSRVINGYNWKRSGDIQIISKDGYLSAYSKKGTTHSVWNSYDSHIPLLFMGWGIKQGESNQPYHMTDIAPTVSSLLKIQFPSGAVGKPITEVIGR
Change = P348G; value = 498 µM
Change = P7G; value = 552 µM
Change = F229V; value = 519 µM
Change = K175G; value = 602 µM
Change = F351V; value = 616 µM
Change = P501G; value = 463 µM
Change = Y472G; value = 251 µM
Change = G514A; value = 447 µM

Further values, each from its own experiment
Compound = CCCCCCCCCCCCCCCCOP(=O)([O-])OCC[N+](C)(C)C; organism = Leishmania donovani; assay = parasite growth, imaging; test system = THP-1; conditions = 40 nM, intracellular, amastigote; endpoint = inhibition; value = 9% and 6% and 4% and 10%

Excerpt of the above (series 3):
Molecule = HINHHHQSITIPWWN; value = 5.87
Molecule = HQQQHHEVSGHHLVR; value = 2.12
Molecule = HFQEHTSHWHVYSTV; value = 2.47
Molecule = FVNTWHYPKTANYHA; value = 1.7
Molecule = HDVAMAKLHHQQFDY; value = 1.25
